Results gathered from unrelated publications.
Lines come from different studies, so protocols differ. “And” joins repeats or separate records; there may be more than shown. ≈ marks a conversion by molar mass, not a printed value.

`COC(=O)[C@]1(C)CCC[C@]2(C)[C@H]3C[C@H]4C(C(C)C)=C[C@]3(CC[C@H]21)[C@H]1[C@@H]4[C@@H](OCC#CCN2CCCC2)CC[C@@H]1O`: infected cells “decreased” (SARS-CoV-2 pseudovirus; BHK-21-hACE2; 20 µM).
With `N#Cc1ncn(COCCBr)c1C#N` the IC50 was 43 µg/mL (Zaire ebolavirus; viral replication, inhibitor; Vero; 72 h).
For `CN[C@@H]1[C@H](O)[C@H](NC)[C@H]2O[C@]3(O)[C@H](O[C@@H]2[C@H]1O)O[C@H](C)C[C@H]3NC(=O)Cc1ccc(F)cn1`, the MIC was 25 µg/mL (≈ 53.1 µM) (Bacillus anthracis; microbial growth; STERNE34F2).
With `CC(C)CC(C(=O)N1CC2(CC1C#N)C(=O)Nc1ccccc12)N(C)C(=O)c1cc2c(F)cc(F)c(F)c2[nH]1` (stereo not shown) the inhibition was 100% (pangolin coronavirus; viral replication; 3 µM).
The IC50 of `COC(=O)c1ncn(CCOC(C)=O)c1C(=O)OC` is reported as 21 µg/mL (Mammarenavirus lassaense; viral replication, inhibitor; Vero; 48 h).
`NS(=O)(=O)c1cccc2c1C(=O)c1cccc(O)c1C2=O` — result for “inhibition of cytopathic effect”: 0% (SARS-CoV-2 USA_WA1/2020; Vero E6; concentration not given, 72 h).
The IC50 of `Cn1cnc(Cn2c(=O)[nH]/c(=N\c3cc4cn(C)nc4cc3Cl)n(Cc3cc(F)c(F)cc3F)c2=O)n1` is reported as 0.93 µM (Murine coronavirus; viral replication, qPCR; L929; 48 h).
For `Cc1ccc(NS(=O)(=O)c2c(C(=O)N3CCCCCC3)c(C)n(C)c2C)c(Cl)c1`, the infection was 68.6% and 52.9% and 53.4% (Vaccinia virus; viral infection; HaCaT; 0.412 µM, 36 h; relative to: untreated).
The MIC of `[O-][N+]1=C(c2ccccc2)C2=NCCN2c2ccccc21` is reported as 0.5 to 1 µg/mL (≈ 1.9 to 3.8 µM) (Clostridium perfringens).
`Cc1ccc(N2CC3CC(C2)N3)cc1C(=O)NC1(c2ccc3c4c(cccc24)C(=O)N3C)CC1` has an inhibition of 0% (SARS-CoV-2; viral replication; Vero C1008, Omicron BA.5; 0.005716 µM).
For `COC(=O)c1ncn(C2CC(O)C(CO)O2)c1C(=O)OC` (stereo not shown), the IC90 was 48 µg/mL (≈ 160 µM) (Mammarenavirus lassaense; viral replication; Vero; 48 h).
`CN[C@@H]1[C@H](O)[C@H](NC)[C@H]2O[C@]3(O)[C@H](O[C@@H]2[C@H]1O)O[C@H](C)C[C@@]3(O)CNCc1ccc(OC(F)(F)F)cc1` — result for “inhibition zone diameter”: 21 mm (Legionella pneumophila; ATCC 33153; 40 µg per disc, 48 h).
For `[O-][N+]1=C(c2ccccc2)C2=NCCCN2c2ncccc21`, the MIC90 was 1 µg/mL (≈ 3.59 µM) (Clostridium perfringens).
`O=C(C=Cc1ccc(O)c(O)c1)OC1CC(O)(C(=O)O)CC(OC(=O)C=Cc2ccc(O)c(O)c2)C1O` (stereo not shown) has an inhibition of 0% (Severe acute respiratory syndrome coronavirus 2; cytopathic effect; Vero C1008; 6.25 µM).
`C[N+]1=C2C(c3ccccc3)=[N+]([O-])c3ccccc3N2CCC1` has an MIC of 16 to 32 µg/mL (Clostridium perfringens).
`O=C(NNC(=S)Nc1ccc(C(F)(F)F)cc1)c1ccccn1`: “upE transcript level” “decreased” (MERS-CoV; viral replication, item: upE gene; concentration not given).
For `N#Cc1ncn(COCCO)c1C#N`, the IC50 was 41 µg/mL (Zaire ebolavirus; viral replication, inhibitor; Vero; 72 h).
With `C[N+]1=C2C(c3ccc([N+](=O)[O-])cc3)=[N+]([O-])c3ccccc3N2CCC1` the MIC50 was 0.25 µg/mL (Clostridium perfringens; microbial growth).
`O=[N+]([O-])c1ccc(-n2nc(-c3ccc(F)cc3)cc2-c2ccc(F)cc2)c([N+](=O)[O-])c1` gave an inhibition of 43.7% (Japanese encephalitis virus; viral replication, item: viral RNA; SA14-14-2, mice, brain; ip, 100 mg/kg/day, 120 h).
`CN1CCN(C(=O)N[C@@H](Cc2ccccc2)C(=O)N[C@H](/C=C/S(=O)(=O)c2ccccc2)CCc2ccccc2)CC1` gave an IC50 of 0.05 to 0.52 µM (Severe acute respiratory syndrome coronavirus; viral replication; Urbani and Toronto-2).
The virus titre of `O=S(=O)(O)c1c2ccccc2c(-c2c3nc(c(-c4c5ccccc5c(S(=O)(=O)O)c5ccccc45)c4ccc([nH]4)c(-c4c5ccccc5c(S(=O)(=O)O)c5ccccc45)c4nc(c(-c5c6ccccc6c(S(=O)(=O)O)c6ccccc56)c5ccc2[nH]5)C=C4)C=C3)c2ccccc12` is reported as 750000 PFU/mL (vaccinia virus; WR; 50 µg/mL, 16 h).
With `CC[C@@H](C)[C@@H](NC(=O)[C@@H](CCCCN)NC(=O)[C@@H](CCCCN)NC(=O)[C@@H](CC(C)C)NC(=O)[C@@H](Cc1c[nH]c2ccccc12)NC(=O)CN)C(=O)NCC(=O)N[C@H](CCCCN)C(=O)N[C@H](CCCCN)C(=O)N[C@@H](C(=O)N[C@H](CCC(=O)O)C(=O)N[C@H](CCCNC(=N)N)C(=O)N[C@@H](C(=O)NCC(=O)N[C@H](CCC(N)=O)C(=O)N[C@H](Cc1c[nH]cn1)C(=O)N[C@@H](C(=O)N[C@H](CCCNC(=N)N)C(=O)N[C@H](CC(=O)O)C(=O)N[C@H](C)C(=O)N[C@@H](C(=O)N[C@@H](C(=O)N[C@H](CCC(N)=O)C(=O)N[C@@H](C(=O)N[C@@H](C(=O)NCC(=O)N[C@@H](C(=O)N[C@H](C)C(=O)N[C@H](CCC(N)=O)C(=O)N[C@H](CCC(N)=O)C(=O)N[C@H](C)C(=O)N[C@H](C)C(=O)N[C@H](CC(N)=O)C(=O)N[C@@H](C(=O)N[C@H](C)C(=O)N[C@H](C)C(=O)N[C@@H](C(=O)N[C@H](CC(C)C)C(=O)N[C@H](CCCCN)C(N)=O)[C@H](C)O)C(C)C)C(C)C)[C@H](C)CC)[C@H](C)O)[C@H](C)CC)[C@H](C)O)[C@H](C)O)C(C)C)[C@H](C)CC` the MIC was 128 to 256 µg/mL (≈ 30.5 to 61 µM) (Escherichia coli, Acinetobacter baumannii; RKI 131/08, ATCC 19606, RKI 19/09).
